Results pooled from the literature.
Compare with care: the assays were run in different laboratories. ± gives the spread as reported.

For `CSCC[C@H](N)C(=O)N[C@@H](C)C(=O)N[C@@H](CCCNC(=N)N)C(=O)N[C@@H](CCCNC(=N)N)C(=O)N[C@@H](CC(=O)O)C(=O)N[C@@H](CCCCN)C(=O)N[C@H](C(=O)N[C@@H](CC(=O)O)C(=O)N[C@@H](Cc1ccccc1)C(=O)N[C@@H](C)C(=O)N[C@@H](CCCNC(=N)N)C(=O)N[C@@H](CCCNC(=N)N)C(=O)N[C@@H](CCCNC(=N)N)C(=O)N[C@@H](CCCNC(=N)N)C(=O)NCCCCCC(=O)NCCCCC(NC(=O)CCCCCNC(=O)[C@H](CCCNC(=N)N)NC(=O)[C@H](CCCNC(=N)N)NC(=O)[C@H](CCCNC(=N)N)NC(=O)[C@H](CCCNC(=N)N)NC(=O)[C@H](C)NC(=O)[C@H](Cc1ccccc1)NC(=O)[C@H](CC(=O)O)NC(=O)[C@@H](NC(=O)[C@H](CCCCN)NC(=O)[C@H](CC(=O)O)NC(=O)[C@H](CCCNC(=N)N)NC(=O)[C@H](CCCNC(=N)N)NC(=O)[C@H](C)NC(=O)[C@@H](N)CCSC)[C@@H](C)O)C(=O)NCCCCC(NC(=O)C(CCCCNC(=O)CCCCCNC(=O)[C@H](CCCNC(=N)N)NC(=O)[C@H](CCCNC(=N)N)NC(=O)[C@H](CCCNC(=N)N)NC(=O)[C@H](CCCNC(=N)N)NC(=O)[C@H](C)NC(=O)[C@H](Cc1ccccc1)NC(=O)[C@H](CC(=O)O)NC(=O)[C@@H](NC(=O)[C@H](CCCCN)NC(=O)[C@H](CC(=O)O)NC(=O)[C@H](CCCNC(=N)N)NC(=O)[C@H](CCCNC(=N)N)NC(=O)[C@H](C)NC(=O)[C@@H](N)CCSC)[C@@H](C)O)NC(=O)CCCCCNC(=O)[C@H](CCCNC(=N)N)NC(=O)[C@H](CCCNC(=N)N)NC(=O)[C@H](CCCNC(=N)N)NC(=O)[C@H](CCCNC(=N)N)NC(=O)[C@H](C)NC(=O)[C@H](Cc1ccccc1)NC(=O)[C@H](CC(=O)O)NC(=O)[C@@H](NC(=O)[C@H](CCCCN)NC(=O)[C@H](CC(=O)O)NC(=O)[C@H](CCCNC(=N)N)NC(=O)[C@H](CCCNC(=N)N)NC(=O)[C@H](C)NC(=O)[C@@H](N)CCSC)[C@@H](C)O)C(N)=O)[C@@H](C)O` (some centres unmarked), the IC50 was 0.16 µM (BMMs from C57BL/6 mice; osteoclast differentiation; 3 days, added: RANKL).
With `Cc1cc(C)c(-n2ccn(-c3c(C)cc(C)cc3C)c2=[Se])c(C)c1.[Cl][Au]` the IC50 was 1.1 µM (PSN1; cell growth or viability, MTT; 72 h).
`Cc1cc(C)n(C(C(=O)OC(C)C)n2nc(C)cc2C)n1.F[P-](F)(F)(F)(F)F.[Cu+].c1ccc(P(c2ccccc2)c2ccccc2)cc1` gave an IC50 of 7.3 ± 1.1 µM (U-1285; cell viability, MTT).
`N.N.O=C([O][Pt]([OH])([Cl])[Cl])c1ccc(P(c2ccccc2)c2ccccc2)cc1.[Cl][Au]` has an IC50 of 5 µM (CAKI-1; cell growth or viability, resazurin; 72 h).
`CC(C)(C)C(=O)OCOP(=O)(OCOC(=O)C(C)(C)C)C1CCCN(O)C1=O` (centres unmarked) gave an IC50 of 1 µM (RCC4 VHL re-expressing; cell growth, crystal violet).
`COc1cc(-c2oc3cc(OC)c(OC)c(O)c3c(=O)c2OC)ccc1O` has an IC50 of 4.32 µM (human Neutrophil; superoxide release, inhibitor, absorbance).
`CNC(=O)c1cc(Oc2ccc(NC(=O)c3ccc(-c4ccccc4OC(=O)CCC(=O)OC4OC5OC6(C)CCC7C(C)CCC(C4C)C57OO6)cn3)cc2)ccn1` (centres unmarked) gave an IC50 of 8.67 µM (Hep3B; cell growth or viability, MTT; 72 h).
With `COc1cccc2c1C(=O)c1c(O)c3c(c(O)c1C2=O)C[C@@](O)(C(=O)CO)C[C@@H]3O[C@H]1C[C@H](NC(=O)CCN2C(=O)CC(SC[C@H](N)C(=O)N3CCC[C@H]3C(=O)N[C@@H](CCCCN)C(=O)N[C@@H](CCCCN)C(=O)N[C@@H](CCCCN)C(=O)N[C@@H](CCCNC(=N)N)C(=O)N[C@@H](CCCCN)C(=O)N[C@H](C(N)=O)C(C)C)C2=O)[C@H](O)[C@H](C)O1` (some centres unmarked) the IC50 was 16.5 ± 1.73 µM (MCF7/ADR doxorubicin-resistant; CCK-8; 48 h, doxorubicin-equivalent dose).
The IC50 of `C#CCN[C@@H]1C=C[C@]2(O[C@H]([C@@H](CC)C(=O)[C@@H](C)[C@@H](O)[C@H](C)[C@@H]3O[C@@H]([C@@H](CC)C(=O)O)CC[C@@H]3C)[C@@H](C)C[C@H]2C)O[C@@]12CC[C@@](C)([C@H]1CC[C@](O)(CC)[C@H](C)O1)O2` is reported as 0.13 ± 0.01 µM (HMLER CD24low/CD44high; cell proliferation; 72 h).
The IC50 of `COc1ccc(C(c2c(C)nn(-c3ccccc3)c2O)c2c(C)nn(-c3ccccc3)c2O)cc1` is reported as 5.45 to 18.3 µM (various human cancer cell lines; cell growth, MTT).
With `CCCC[C@@H]1NC(=O)COC[C@H]2CCCN2C(=O)[C@H](CCCCN)NC(=O)[C@H](CC(C)C)NC(=O)[C@H](CCCCN)NC(=O)[C@H](CC(C)C)NC(=O)[C@H](CCCCN)NC(=O)COC[C@H]2CCCN2C(=O)[C@H](Cc2c[nH]c3ccccc23)NC(=O)[C@H](C)NC(=O)[C@H](C(C)C)NC(=O)[C@H](C(C)C)NC1=O` the IC50 was 26.9 µM (NCI-H929; viability, TO-PRO-3 staining, flow cytometry).

A few entries again:
`COc1cc(-c2oc3cc(OC)c(OC)c(O)c3c(=O)c2OC)ccc1O` has an IC50 of 4.32 µM (human Neutrophil; superoxide release, inhibitor, absorbance).
`CNC(=O)c1cc(Oc2ccc(NC(=O)c3ccc(-c4ccccc4OC(=O)CCC(=O)OC4OC5OC6(C)CCC7C(C)CCC(C4C)C57OO6)cn3)cc2)ccn1` (centres unmarked) gave an IC50 of 8.67 µM (Hep3B; cell growth or viability, MTT; 72 h).
